Results from different studies.
Lines come from different studies, so protocols differ.
Target: Rhodopsin kinase GRK1 (GRK1, Homo sapiens, UniProt Q15835)

| SMILES | test | conditions | scale | endpoint | value |
| --- | --- | --- | --- | --- | --- |
| CNC(=O)C1CCN(c2cc(C)c(F)cc2NC(=O)c2ccc(-c3cc(O)ccc3C)c(C)c2)CC1 | binding, competition with immobilised ligand | 1 µM | – | remaining binding | 100% |
| COc1cc(Nc2nc(C)cc(-c3cnn4nc(OC)ccc34)n2)cc(C(F)(F)F)c1 | inhibitor | 1 µM | baseline: control | remaining activity | 75% |
| Cc1ccc(-c2c(/C=C(\C#N)C(=O)NC(C)C)n(CCCO)c3ncnc(N)c23)cc1 | cell-free assay, competition with immobilised ligand | 1 µM | – | remaining binding | 100% |
| COc1cc(Nc2nccc(-c3cnn4nc(OC)ccc34)n2)cc(C(F)(F)F)c1 | binding, competition with immobilised ligand | 1 µM | – | remaining binding | 86% |
| CN1CCN(Cc2ccc(-c3ccc(CO[C@H]4CCC[C@@H]4NC(=O)c4cc(-c5cnn(C)c5)cnc4N)cc3)cc2)CC1 | enzyme activity, inhibitor | 0.1 µM | – | inhibition | -4% |
| Nc1ncc(-c2cc(-c3cnn(CC(F)(F)F)c3)ncc2F)nc1C(=O)NC1CNCC(F)C1 (centres unmarked) | enzyme activity | 1 µM | baseline: DMSO control | remaining activity | 103% |
| CC(C)=CC1OC(C)(C)C2C=C3C(=O)C(Cl)=CC(O)C3C3C(O)C4OC4C(=O)C132 (centres unmarked) | cell-free assay, competition with immobilised ligand | 10 µM | – | remaining binding | 73% |
| Cc1nc2c(F)cc(-c3nc(Nc4ccc(CNC(=O)CCCCCCC(=O)NO)cc4)ncc3F)cc2n1C(C)C | enzyme activity, inhibitor | 1 µM | – | inhibition | 0% |
| Cc1cnc2nc1Nc1cccc(c1)COC/C=C/COCc1cc(ccc1OCCN1CCOCC1)N2 | binding | 0.1 µM | – | remaining binding | 94% |
| NC(=O)C[C@H]1CCc2sc3ncnc(O[C@H]4CC[C@H](N5CCOCC5)CC4)c3c21 | enzyme activity, inhibitor | 10 µM | – | inhibition | 11% |
| C=CC(=O)N1CCCC(n2c(=O)c3ncccc3n(Cc3ccc(Oc4ccccc4)cc3)c2=O)C1 (centres unmarked) | cell-free assay, competition with immobilised ligand | 1 µM | – | remaining binding | 87% |
| Nc1ncc2c(n1)-c1c([nH]c3ccc(C4=CCOCC4)cc13)CCC2 | binding, competition with immobilised ligand | 1 µM | – | remaining binding | 72% |
| CNC(=O)C[C@H](Cc1ccc(C#N)cc1)NC(=O)c1cc(-c2ccc(CN[C@H](C)c3ccc(C)cc3)o2)ccc1Cl | enzyme activity, inhibitor | 1 µM | – | activity vs control | 100% |
| C=CC(=O)N1CCc2ccc(-n3c(=O)ccc4cnc5ccc(-c6cnn(C)c6)cc5c43)cc21 | KINOMEscan | 1 µM | baseline: DMSO control | remaining binding | 95% |
| Cc1c[nH]c2nccc(-c3ccc(C(=O)N[C@@H]4c5c(F)cc(C(F)F)cc5C[C@@H]4O)cn3)c12 | binding, competition with immobilised ligand | 3 µM | – | remaining binding | 9.3% |
| CCN1CCN(Cc2ccc(C(=O)Nc3ccc(C)c(NCc4cnc5[nH]ccc5c4OC)c3)cc2C(F)(F)F)CC1 | binding, competition with immobilised ligand | 1 µM | – | remaining binding | 71% |
| COc1c(Cl)cccc1Nc1c(-c2ccncc2C#C[C@@]2(C)CCCN2C(=O)/C=C/CN(C)C)[nH]c2c1C(=O)NCC2 | binding, competition with immobilised ligand | 3 µM | – | remaining binding | 92% |
| C=CC(=O)N1Cc2nc(-c3cc(-c4cc(Cl)cnc4Cl)c(F)cc3F)n(-c3ccncn3)c2C1 | cell-free assay, inhibitor | 1 µM | – | inhibition | 7.7% |
| CCn1cc(C(=O)O)c(=O)c2c(N)c(F)c(NC3CCCCC3)cc21 | kinase activity | 0.1 µM, with: ATP at Km | – | inhibition | -9.5% |
| O=C(Cc1ccc(OCc2ccccc2)cc1)NC1(C(=O)O)CCN(C(=O)c2ccc(-c3cccc(Cl)c3)cc2)CC1 | enzyme activity, inhibitor | 10 µM | – | activity vs control | 84% |
| CNC1C[S+]2CC[S+]3CC[S+](C1)[Ru-4]321([N]=C=S)[n]2c3ccc(OC)cc3c3c4c(c5cc(F)c[n+]1c5c32)C(=O)NC4=O (centres unmarked) | KinomeScan | 0.1 µM | baseline: untreated | remaining binding | 4.4% |
| CN1CC[C@@H](COc2cnc(C#N)cc2-c2ccn3nc(NC(=O)C4CC4)cc3c2)C1 | enzyme activity, inhibitor | 1 µM | – | inhibition | 5% |
| NC(=O)[C@@H](O)C[C@H]1CCc2sc3ncnc(O[C@H]4CC[C@H](N5CCOCC5)CC4)c3c21 | enzyme activity, inhibitor | 10 µM | – | inhibition | 12% |

Some of these lines once more:
| SMILES | test | conditions | scale | endpoint | value |
| --- | --- | --- | --- | --- | --- |
| Cc1cnc2nc1Nc1cccc(c1)COC/C=C/COCc1cc(ccc1OCCN1CCOCC1)N2 | binding | 0.1 µM | – | remaining binding | 94% |
| NC(=O)C[C@H]1CCc2sc3ncnc(O[C@H]4CC[C@H](N5CCOCC5)CC4)c3c21 | enzyme activity, inhibitor | 10 µM | – | inhibition | 11% |
| C=CC(=O)N1CCCC(n2c(=O)c3ncccc3n(Cc3ccc(Oc4ccccc4)cc3)c2=O)C1 (centres unmarked) | cell-free assay, competition with immobilised ligand | 1 µM | – | remaining binding | 87% |
